Published values from different studies.
Each numbered part is a random draw from the data of one study; scales do not carry over between parts.

Set 1 — method: protein binding microarray; molecule type: double-stranded DNA, one strand shown; medium: in vitro; concentration: not given; baseline: not given; reading: higher = stronger binding
Target: Histone acetyltransferase KAT6A, both winged helices, GST fusion (KAT6A, Homo sapiens, UniProt Q92794, residues 1-181)
Setting: 8-mer, flanks averaged, mean of 2 arrays, mostly near background
Construct (chain): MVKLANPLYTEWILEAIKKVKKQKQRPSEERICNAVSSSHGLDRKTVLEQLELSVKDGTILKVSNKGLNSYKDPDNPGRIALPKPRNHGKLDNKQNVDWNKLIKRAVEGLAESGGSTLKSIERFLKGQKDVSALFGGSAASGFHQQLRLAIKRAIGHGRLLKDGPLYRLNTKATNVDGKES
Sequence | E-score
CTTCCATA | -0.148
ATGCGTTG | 0.138
CCCTGAGA | -0.297
TATTTTCA | -0.0179
ACTAAGAT | -0.0592
TATCAGAA | 0.0222

Set 2 — method: universal PBM; molecule type: double-stranded DNA, one strand shown; medium: in vitro; concentration: not given; reading: higher = stronger binding
Target: Sal-like protein 4, full length isoform B (SALL4, Homo sapiens, UniProt Q9UJQ4-2, residues 1-616)
Setting: 8-mer, flanks averaged, mean of replicates
Target sequence (chain): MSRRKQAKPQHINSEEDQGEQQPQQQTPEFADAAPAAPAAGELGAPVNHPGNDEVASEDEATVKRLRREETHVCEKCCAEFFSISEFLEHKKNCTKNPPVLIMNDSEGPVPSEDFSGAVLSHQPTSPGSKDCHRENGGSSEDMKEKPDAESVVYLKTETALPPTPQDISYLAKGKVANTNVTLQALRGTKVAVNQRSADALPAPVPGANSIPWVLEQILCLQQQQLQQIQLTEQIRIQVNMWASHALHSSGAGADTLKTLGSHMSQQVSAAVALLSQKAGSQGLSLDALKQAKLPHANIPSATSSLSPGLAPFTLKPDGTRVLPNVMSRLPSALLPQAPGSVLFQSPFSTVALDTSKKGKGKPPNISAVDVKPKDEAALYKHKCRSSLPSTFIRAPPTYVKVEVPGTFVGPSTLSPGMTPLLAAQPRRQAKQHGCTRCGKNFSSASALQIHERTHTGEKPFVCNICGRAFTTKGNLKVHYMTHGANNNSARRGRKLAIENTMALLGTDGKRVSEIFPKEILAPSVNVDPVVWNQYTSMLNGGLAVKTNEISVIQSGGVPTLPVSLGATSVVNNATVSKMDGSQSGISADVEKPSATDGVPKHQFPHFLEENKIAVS
Sequence | E-score
AGCATGTG | 0.061
AAACAGAA | 0.18
AAATTATA | 0.391
GTCCACCA | -0.182
GCCGTCAA | -0.213
TAAAATCA | 0.228
GCAACGGA | -0.079
CGGCGTTA | -0.198
CACCACTA | 0.0414

Set 3 — method: protein-binding microarray; molecule type: double-stranded DNA, one strand shown; medium: in vitro; concentration: 250 nM; setting: 60-bp whole probe; together with: salmon DNA 0.4 mg/ml; baseline: random background probes; reading: higher = stronger binding; shared flanks, not repeated: GCCTAGCAC … GTCTTGATTCGCTTGACGCTGCTG
Target: Interferon regulatory factor 5, full length, phosphomimetic (IRF5, Homo sapiens, UniProt Q13568-2, residues 1-514, K96S/S451D/S453D/S456D/S462D)
Sequence | log fluorescence [z-score]
TTAGGACTGGGAATGGGTTAGTGCTAG | -0.0907
GAGGAACTGAGTTTCGAGACGTGCTAG | 4.82
GACGGTTCCCGTTTCCTGACGTGCTAG | 0.268
TTAGGTATCGGGTTTCGGTGAGTGCTA | 7.33
GCCGGTATCCTTTTCCTGACGTGCTAG | 0.398
GACGGTTCCCTACTGCTGACGTGCTAG | -0.195
GACGGTATCTGTCTCGGGACGTGCTAG | 0.594
GACGGTTTCGGGCATCGGGACGTGCTA | 5.56

Mixed results
Molecule | target | test | test system | setting | scale | quantity | value
PhoQ, residues 284 288 289 292 302 303 TLSLKA | PhoP, residues 12 14 15 18 19 TPLRH (Escherichia coli, UniProt P23836) | Sort-seq, measured: YFP reporter | E. coli | PhoQ-PhoP variant library, together with: 10 µM Mg2+ | baseline: high Mg2+ state, higher = stronger signaling | fold induction | 16.5

For quick reference, copied from above (set 2):
Sequence | E-score
CACCACTA | 0.0414
AGCATGTG | 0.061
CGGCGTTA | -0.198
GCCGTCAA | -0.213
